Results pooled from the literature.
A part holds a random share of what one study measured. Substitutions count along the parent as printed.

Block 1
Target: RNA binding protein fox-1 homolog 2, RRM domain, GST-SBP tag (RBFOX2, Homo sapiens, UniProt O43251-10, residues 100-194)
Method: RNA Bind-n-Seq
Form: RNA
Sample: in vitro
Tested at: 365 nM
Setting: natural RNA segment, single round, ends assumed
Relative to: no-protein control
Reading: higher = stronger binding
Endpoint: RBNS enrichment (R)
Constant ends, left off below: GGGAGUUCUACAGUCCGACGAUC … UGGAAUUCUCGGGUGCCAA
Residues (chain): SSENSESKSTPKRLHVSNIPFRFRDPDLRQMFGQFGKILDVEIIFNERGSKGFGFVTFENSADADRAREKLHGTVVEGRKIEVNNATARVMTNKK
UGAGGAGUGUGAACUGUUGGGGUCAGUUAAGACCCAACAUAACUCUAUCAGAAGAAAACUGUUGUUUGCCUUUCAACCUUGUUUUACAGUUCUGCAGUGUAAUGGAGGAC: 0.258
AACUCUGAAGACAACCAAAAGAACGGAUCAAUUAAAAACUGAUUCCACUUAUAACCAUUGUAUGCUCCUUCUAGUGUUAUCAUGCACAAGAAAAGUGCCAGUUUUACCCA: 0.327
GAGGUGUCUGAACAAGCUUGGGGAGGGUCUAUAAGGGGUAGGCUCAAAAAAAAAAAAACCCAUUUGCAGAGGCAGUUUUGCCAACACAAGGGCUCUUUCAAGCCGACUUU: 0.605
UGUUUUAGCCUUCAGGUGUUUGGUUUUGUAUGUGCUCCCUCAUUUUAAACAUUAAACCAAACUUCUGGUUUCCUUUAGACAAUCCAAGAGAAAUAAAAGGCCCUACUUUC: 0.852
GGCAGUGCGUGGAAAGGCCGGGGAGGUGCAGAAACCAGAGCCCAGGGCAAUGGUGUCUGUCCAGCCCCUCCCUCUGUCCCUGUGCUCCAAGCUGCCCCCGGCUGCAGCCC: 0.509
GAAGGCAUGAGGCACUCUCUGAUGGCUUGCUAGUCAAAACUGGAAGGAUUUUCCUUAGGACAGGUGUGACCUUCUGGUCCCUCUGUCCCAUUGCCCUCUCGUAUUCCAUU: 0.229
AAAGGGAAUUGCUGUCCUUGCCCUGUGGUAUGCUGCCACCUCUUUGGGAAGCAGGCCUUGCCCCUGUCCCACCACUCAUUCUCAGCUUUGAAUGGGAGGCCUUUCUAUAG: 0.417
GUGGGUGUUGGCUGGGGCAUUAAAACUCAUCAUCGCCACCCAUCUCUGUCUCUCGUCACCCUGAUCUCCCCGCACGGUUGUGUCCCUGGUCUGGAACAUUAGUUUUUUUA: 0.999

Block 2
Target: CCNA1, cyclin fold, Cln2 fusion (human)
Method: yeast growth competition, sequencing
Sample: yeast
Setting: weak parent motif
Relative to: not given
Reading: higher = stronger binding
Endpoint: normalised enrichment score
Parent: GMNC docking peptide (human); KNAKRNLSSEFAN
KNAKRNLSNEFAN [S9N]: 0.645
KNAKRNLSDEFAN [S9D]: 0.482
KNAKRNLSSRFAN [E10R]: 0.214
KNAKTNLSSEFAN [R5T]: 0.324
KNAKRNLSSEFQN [A12Q]: 0.52
KNEKRNLSSEFAN [A3E]: 0.204
KNYKRNLSSEFAN [A3Y]: 0.0939
KNVKRNLSSEFAN [A3V]: 1.19
KCAKRNLSSEFAN [N2C]: 0.394

Block 3
Target: Interferon regulatory factor 7, full length, phosphomimetic (IRF7, Homo sapiens, UniProt Q92985, residues 1-503, S101K/S471D/S472D/S475D/S476D/S477D/S483D/S484D/S487D)
Method: protein-binding microarray
Form: double-stranded DNA, one strand shown
Sample: in vitro
Tested at: 250 nM
Setting: 60-bp whole probe
Together with: salmon DNA 0.4 mg/ml
Relative to: random background probes
Reading: higher = stronger binding
Endpoint: log fluorescence
Constant ends, left off below: GCCTAGCAC … GTCTTGATTCGCTTGACGCTGCTG
Residues (chain): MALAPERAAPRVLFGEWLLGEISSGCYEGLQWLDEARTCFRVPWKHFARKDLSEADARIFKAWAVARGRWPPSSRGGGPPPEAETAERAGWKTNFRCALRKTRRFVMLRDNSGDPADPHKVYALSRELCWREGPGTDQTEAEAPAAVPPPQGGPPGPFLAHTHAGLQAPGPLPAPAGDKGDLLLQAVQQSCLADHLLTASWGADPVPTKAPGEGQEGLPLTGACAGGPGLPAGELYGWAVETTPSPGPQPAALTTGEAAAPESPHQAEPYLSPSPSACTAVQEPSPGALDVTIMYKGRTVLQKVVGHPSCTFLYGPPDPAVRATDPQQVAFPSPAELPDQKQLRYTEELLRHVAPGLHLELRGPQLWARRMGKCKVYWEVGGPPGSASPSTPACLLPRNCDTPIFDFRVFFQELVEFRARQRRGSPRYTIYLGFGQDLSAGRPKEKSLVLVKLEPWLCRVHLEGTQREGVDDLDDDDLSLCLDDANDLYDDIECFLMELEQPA
GACGGTATTGACACTGGGGACGTGCTA: -0.34 z-score
TTAGATTTCAGGTTTCGATTAGTGCTA: 7.99 z-score
TTAGGTTTCCTTCTCCTTTTGTGCTAG: 2.59 z-score
TCACATATACACTGTGTAACTGTGCTA: 0.217 z-score
TTAGGACTGGACCTTCGGTTAGTGCTA: -0.458 z-score
GACGGTATCGGTTTCGGGAAGTGCTAG: 6.34 z-score
GACGGACTGGGGTTTCGGGGCGTGCTA: 0.29 z-score
TGAGATATCAGTATCGATTAGTGCTAG: 0.652 z-score
TCACTCATGGCTTTGTAGATGTGCTAG: -0.31 z-score
TTAGAACTGAGTTTCGCTTAGTGCTAG: 5.56 z-score
TTAGGTTTCGGTTCCGGTTCGTGCTAG: 12.9 z-score
TCAAATCTCTTTCCTTAACTGTGCTAG: 0.724 z-score
TTAGATTTCGGGACTAGATTAGTGCTA: 0.635 z-score
CTCTTGTTCTCTCTGGCCCTGTGCTAG: 0.82 z-score
TCATATTAAAATTTCATACTGTGCTAG: 0.744 z-score

Further values, each from its own experiment
PhoQ, residues 284 288 289 292 302 303 ALSMDL
fold induction (PhoP, residues 12 14 15 18 19 AQCLL (Escherichia coli, UniProt P23836); Sort-seq, item: YFP reporter; E. coli; PhoQ-PhoP variant library, together with: 10 µM Mg2+; relative to: high Mg2+ state, higher = stronger signaling): 0.924
